Measured values from different studies.
Each numbered part is a random draw from the data of one study; scales do not carry over between parts. Positions count from the first letter of the parent shown.

Block 1
Target: Sal-like protein 4, full length isoform B (SALL4, Homo sapiens, UniProt Q9UJQ4-2, residues 1-616)
Method: universal PBM
Molecule type: double-stranded DNA, one strand shown
Matrix: in vitro
Concentration: not given
Notes: 8-mer, flanks averaged, mean of replicates
Direction: higher = stronger binding
Endpoint: E-score
AGGCTAGA: -0.0625
GGAGAACA: 0.0152
CCATCAAG: -0.0845
TCTTAACA: 0.14
CATTGGCG: -0.113
AATACCTC: 0.111
CACAGGTG: -0.118
CATTCTAA: 0.138
ACCCTGAA: -0.00688
AGATCAGA: -0.0584
AGTTAAAA: 0.248
AGCGCCAG: -0.202
AAAAAGTC: -0.0135
ATCAGGCC: -0.0934
AGTATATC: 0.132
CTCACAGC: -0.158
GATCAGAA: -0.0231
CGACTAAA: 0.0197
ACGGTAAA: 0.132
AGCCCGCG: -0.408
CGACTAGC: -0.0987
AGATCAGC: -0.238
CATCAGGC: -0.164
CAATGTAC: 0.0581
ATAATCCG: 0.242

Block 2
Target: CCNB1, cyclin fold, Cln2 fusion (human)
Method: yeast growth competition, sequencing
Matrix: yeast
Notes: strong parent motif
Reference: not given
Direction: higher = stronger binding
Endpoint: normalised enrichment score
Starting sequence: BRCA2 docking peptide (human); PSIKRNLLNEFDR
PSIKRNLLNMFDR [E10M]: -0.285
PSINRNLLNEFDR [K4N]: 2.45
PSIKRNLLNEFIR [D12I]: -0.228
PSIKRILLNEFDR [N6I]: 0.101
PSIKRNLMNEFDR [L8M]: 3.13
PSIKRNLLNECDR [F11C]: 0.137
PSIMRNLLNEFDR [K4M]: 2.15
PSIKRNLLVEFDR [N9V]: 3.03
PSIKRNDLNEFDR [L7D]: -0.0951
PSIKRNLLNEFLR [D12L]: -0.05
PSIKRNLLNEFHR [D12H]: 0.623
PSIKRNLLNEGDR [F11G]: 1.28
PSVKRNLLNEFDR [I3V]: 3.21
PSIKHNLLNEFDR [R5H]: 0.222
QSIKRNLLNEFDR [P1Q]: 3.48
PSITRNLLNEFDR [K4T]: 1.71
PSIKRNMLNEFDR [L7M]: 1.23
PSIKRNLANEFDR [L8A]: 1.16
PSIKRNLLNCFDR [E10C]: 1.52
GSIKRNLLNEFDR [P1G]: 2.08
TSIKRNLLNEFDR [P1T]: 2.14
PSIKRELLNEFDR [N6E]: 0.576
PSIKRPLLNEFDR [N6P]: 0.744
PSIKDNLLNEFDR [R5D]: 0.486
PSIKRNLLNEFRR [D12R]: 1.01

Block 3
Target: ABI1, truncated, D143A, DHFR fusion (Arabidopsis thaliana)
Method: DHFR PCA, deep sequencing
Matrix: yeast
Notes: methotrexate growth selection, single substitutions
With: (+)-ABA 4.8 µM
Reference: wild-type fitted maximum
Direction: higher = stronger binding
Endpoint: relative binding score
Starting sequence: PYL1, truncated, DHFR fusion (Arabidopsis thaliana); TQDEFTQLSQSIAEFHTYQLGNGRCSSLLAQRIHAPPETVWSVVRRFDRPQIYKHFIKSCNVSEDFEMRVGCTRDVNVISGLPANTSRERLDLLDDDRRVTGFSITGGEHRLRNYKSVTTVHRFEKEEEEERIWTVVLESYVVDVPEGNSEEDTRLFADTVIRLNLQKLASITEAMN; partner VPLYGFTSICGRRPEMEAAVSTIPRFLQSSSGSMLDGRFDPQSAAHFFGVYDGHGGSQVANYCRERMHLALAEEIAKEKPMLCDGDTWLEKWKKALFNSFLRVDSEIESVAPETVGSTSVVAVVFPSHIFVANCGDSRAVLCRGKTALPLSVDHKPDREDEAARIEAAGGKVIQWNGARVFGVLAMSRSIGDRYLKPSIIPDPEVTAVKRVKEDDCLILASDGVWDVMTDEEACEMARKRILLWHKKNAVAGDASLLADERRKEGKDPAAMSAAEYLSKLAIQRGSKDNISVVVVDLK
Q7V: 70.1%
E174I: 13.9%
K126R: 86.7%
S140L: -2.49%
R69G: 57%
N85I: 66.7%
E89A: -6.13%
E64C: 65%
C60V: 68.5%
D48F: -18.2%
V137Q: 4.7%
R69Q: 65%
S26C: 67.6%
N77D: 75.6%
I79N: 27%
T173S: 74.6%
E130R: 73.3%
V136A: 19.1%
R49W: -2.64%
F124A: 59.1%
I105T: 6.45%
D96N: 29.5%
H34W: 47.7%
T119I: 24.1%

Block 4
Target: UBE2N UBC core domain (UniProt P61088)
Method: yeast two-hybrid
Matrix: yeast
Notes: mostly zero background
Reference: not given
Direction: higher = stronger interaction
Endpoint: lacZ reporter activity
B1: MARCHF1 RING domain (UniProt Q8TCQ1); chain TAPRSQSRLSVCPSTQDICRICHCEGDEESPLITPCRCTGTLRFVHQSCLHQWIKSSDTRCCELCKYDFIMETKLKPLRKWE
B2: RNF182 RING domain (UniProt Q8N6D2); chain AESQASDELECKICYNRYNLKQRKPKVLECCHRVCAKCLYKIIDFGDSPQGVIVCPFCRFETCLPDDEV
B3: MKRN3 RING domain (UniProt Q13064); chain FAVQRGMDKVCGICMEVVYEKANPNDRRFGILSNCNHSFCIRCIRRWRSARQFENRIVKSCPQCRVTSELVIPSE
B4: TRIM11 RING domain (UniProt Q96F44); chain LSTNLQEEATCAICLDYFTDPVMTDCGHNFCRECIRRCWGQPEGPYACPECRELSPQRNLRP
B5: CNOT4 RING domain (UniProt O95628); chain MSRSPDAKEDPVECPLCMEPLEIDDINFFPCTCGYQICRFCWHRIRTDENGLCPACRKPYPED
B6: VPS8 RING domain (UniProt Q8N3P4); chain TRGLNPKQDYCSICLQQYKRRQEMADEIIVFSCGHLYHSFCLQNKECTVEFEGQTRWTCYKCSSSNKVGKLSE
B7: RUFY1 RING domain (UniProt Q96T51); chain QALKGHAWLKDDEATHCRQCEKEFSISRRKHHCRNCGHIFCNTCSSNELALPSYPKPVRVCDSCHTLLLQRCSSTAS
B8: MID2 RING domain (UniProt Q9UJV3); chain KMETLESELTCPICLELFEDPLLLPCAHSLCFSCAHRILVSSCSSGESIEPITAFQCPTCRYVISLNHRGL
B9: NFX1 RING domain (UniProt Q12986); chain IEQLTTEKYECMVCCELVRVTAPVWSCQSCYHVFHLNCIKKWARSPASQADGQSGWRCPACQNVSAHVPNTY
B10: RNF186 RING domain (UniProt Q9NXI6); chain HSGSTECDLECLVCREPYSCPRLPKLLACQHAFCAICLKLLLCVQDNTWSITCPLCRKVTAVPGGLI
B11: HLTF RING domain (UniProt Q14527); chain LILSSGSDEECAICLDSLTVPVITHCAHVFCKPCICQVIQNEQPHAKCPLCRNDIHEDNLLE
B12: TRIM41 RING domain (UniProt Q8WV44); chain PVQTLQEEAVCAICLDYFTDPVSIGCGHNFCRVCVTQLWGGEDEEDRDELDREEEEEDGEEE
Residues (chain): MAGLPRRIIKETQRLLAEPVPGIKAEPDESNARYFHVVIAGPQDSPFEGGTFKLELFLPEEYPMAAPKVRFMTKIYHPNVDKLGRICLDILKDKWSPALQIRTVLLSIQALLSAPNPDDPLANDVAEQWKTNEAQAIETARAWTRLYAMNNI
B1 (MARCHF1 RING domain): 0
FAEQPSVKLCCQLCCSVFKDPVITTCGHTFCRRCALKSEKCPVDNVKLTVVVNNI (TRAF7 RING domain (UniProt Q6Q0C0)): 0
B2 (RNF182 RING domain): 6150
ASPKIFQKTKCSICNSALELPSVHFLCGHSFHQHCFESYSESDADCPTCLPENRKVMDMI (VPS11 RING domain (UniProt Q9H270)): 0
LVKDFNPYITCYICKGYLIKPTTVTECLHTFCKTCIVQHFEDSNDCPRCGNQVHETNPLE (PCGF5 RING domain (UniProt Q86SE9)): 0
B3 (MKRN3 RING domain): 0
B4 (TRIM11 RING domain): 0
B5 (CNOT4 RING domain): 10300
B6 (VPS8 RING domain): 0
B7 (RUFY1 RING domain): 0
B8 (MID2 RING domain): 7210
EIKEYKARLTCPCCNTRKKDAVLTKCFHVFCFECVRGRYEARQRKCPKCNAAFGAHDFHR (RNF40 RING domain (UniProt O75150)): 0
B9 (NFX1 RING domain): 3040
B10 (RNF186 RING domain): 0
B11 (HLTF RING domain): 0
B12 (TRIM41 RING domain): 0

Block 5
Target: RNA binding protein fox-1 homolog 2, RRM domain, GST-SBP tag (RBFOX2, Homo sapiens, UniProt O43251-10, residues 100-194)
Method: RNA Bind-n-Seq
Molecule type: RNA
Matrix: in vitro
Concentration: 365 nM
Notes: natural RNA segment, single round, ends assumed
Reference: no-protein control
Direction: higher = stronger binding
Endpoint: RBNS enrichment (R)
All sequences stand within: GGGAGUUCUACAGUCCGACGAUC … UGGAAUUCUCGGGUGCCAA
UCAGACAAUGGUAUAUAUUUUUGUUAUCAGGUGCAUGUCUGUCUGAUUUCUUUUUUUUUCCUGUUGGACUAUGUUUGUGAACAUAAUUGUCAUAAGUUAUGUUUCAGAUU: 29.1
CAAAAACUUAUGCACCAACUGUGAAUAGCUGCCGCUUGUGCAGAUCCCCAGGGGCUCCCGGUGACACACUGGAAAUGACUGUUCCAGGGGACAGAAAAUACUCAUCUGUC: 0.4
GGAGGCUGGAACCAUUUCUGGGCAUUGUGGUCAUUCCCACUGUGUUCCUCCACCUCCUCCCUCCAGCGUUGCUCAGACCUCUGUCUUGGGAGAAAGGUUGAGAUAAGAAU: 0.489
CAACUUGUCUUUUCAGCCGGCUGACCUGCAGCCUGUACAGCUCUGAAGCAUCUUUAAAUACGAUAGAAAAUAAGCUACUCAAGAAGCUGGUCUGUGUCCUUUUGCCUUAG: 0.454
UAUCUUAAAUGUCCCUGAUGAGGAGAGCAGUCAUCAAUUAAAUAUAUAAGCUCUUAAAAUGAGAAUGGAAGUGUCAGUAUAGACCCAGUGUACUUAAGUGCUGAUGACUG: 0.835
UUUUUUUUGUACUUAGAAAACCUAGAUACUGCAGUCAGAUUUUGGAAACUGCCGUAUAGUCACUGUUUUAAAAACCCCGGAGGGGCUGUAUUAAUUUGUAUUGCCCCAUG: 0.522
AAUUUUCCAUAAGCUAUUUUGGUUUAGUGCAAAGUAUAAAAUUAUAUUUGGGGGGGAAUAAGAUUAUAUGGACUUUCUUGCAAGCAACAAGCUAUUUUUUAAAAAAAACU: 1.07
CUCUGUCCCUCCUUCCUAGAUAGGGAUGAUCAGAAGGUAGCCAUCUCUUCUUGCAGCUGCCUGGCCAGGAUCUAUGGCUUAGGAUCUAUGGCCACCCCUGCAGGGGAGCU: 0.429
AUGUUAUGUCUGAUGUUGUGUUUUUAGAGCUGUGAAAAGUCUGAAAAAUUUCAAGGGGUAUUAUUUAAAUGAUGAUUAUCUGGCUGAAUUAUGUGUGAGCUAGAAUCUAG: 0.738
UGUAUUUUAGUAGCAGUUGAGGCAAUUAGUUUUAGGGUGAAUUUUUCACUGUUGAUUUUACUUUAAGAUGUAGCCAGAGAAAGUUUUGUUUUUAAGGCAUUUUAAAGCUG: 0.54
GCUCUUCAGCAUGGCAGGACGUGUAAUGAGGGCUUUCGCAAGUCCUUCAGCGCUGCAGAGCAGUAAGCUAUCCAUCCAGUGAGUGUGGCGGCUCUUUCUACAGCUGAACU: 0.572
UCUUCCUCAUUCAUUCUUUAUCAUCCUGUGUUCUGUUUAGUUGCAACAAUCUCUUGUGACUAAUGUCACUCAAAGCAUCUUGUAAAUCCUAGGGCUUCCUGGAAGUUAGU: 1.45

For quick reference, copied from above (block 4):
B7 (RUFY1 RING domain): 0
B12 (TRIM41 RING domain): 0
B8 (MID2 RING domain): 7210
B2 (RNF182 RING domain): 6150
FAEQPSVKLCCQLCCSVFKDPVITTCGHTFCRRCALKSEKCPVDNVKLTVVVNNI (TRAF7 RING domain (UniProt Q6Q0C0)): 0
B3 (MKRN3 RING domain): 0
B5 (CNOT4 RING domain): 10300
B11 (HLTF RING domain): 0
